Results collected from several papers.
Parts stem from different laboratories: compare values within a part only.
Chain of UniProt Q9Y2H1 (whole entry, looked up): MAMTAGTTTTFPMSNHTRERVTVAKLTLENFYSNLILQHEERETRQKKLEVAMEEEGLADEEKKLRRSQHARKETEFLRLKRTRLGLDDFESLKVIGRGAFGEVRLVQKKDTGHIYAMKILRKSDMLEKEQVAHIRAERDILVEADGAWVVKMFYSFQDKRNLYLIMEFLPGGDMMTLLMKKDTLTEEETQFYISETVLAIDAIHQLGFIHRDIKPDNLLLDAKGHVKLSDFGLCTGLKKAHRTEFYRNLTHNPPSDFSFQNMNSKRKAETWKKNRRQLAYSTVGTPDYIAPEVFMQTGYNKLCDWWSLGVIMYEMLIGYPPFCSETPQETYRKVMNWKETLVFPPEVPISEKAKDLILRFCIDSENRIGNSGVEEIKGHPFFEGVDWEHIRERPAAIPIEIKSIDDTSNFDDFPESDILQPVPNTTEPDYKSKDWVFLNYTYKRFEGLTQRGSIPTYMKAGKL
Chain of UniProt P07332 (whole entry, looked up): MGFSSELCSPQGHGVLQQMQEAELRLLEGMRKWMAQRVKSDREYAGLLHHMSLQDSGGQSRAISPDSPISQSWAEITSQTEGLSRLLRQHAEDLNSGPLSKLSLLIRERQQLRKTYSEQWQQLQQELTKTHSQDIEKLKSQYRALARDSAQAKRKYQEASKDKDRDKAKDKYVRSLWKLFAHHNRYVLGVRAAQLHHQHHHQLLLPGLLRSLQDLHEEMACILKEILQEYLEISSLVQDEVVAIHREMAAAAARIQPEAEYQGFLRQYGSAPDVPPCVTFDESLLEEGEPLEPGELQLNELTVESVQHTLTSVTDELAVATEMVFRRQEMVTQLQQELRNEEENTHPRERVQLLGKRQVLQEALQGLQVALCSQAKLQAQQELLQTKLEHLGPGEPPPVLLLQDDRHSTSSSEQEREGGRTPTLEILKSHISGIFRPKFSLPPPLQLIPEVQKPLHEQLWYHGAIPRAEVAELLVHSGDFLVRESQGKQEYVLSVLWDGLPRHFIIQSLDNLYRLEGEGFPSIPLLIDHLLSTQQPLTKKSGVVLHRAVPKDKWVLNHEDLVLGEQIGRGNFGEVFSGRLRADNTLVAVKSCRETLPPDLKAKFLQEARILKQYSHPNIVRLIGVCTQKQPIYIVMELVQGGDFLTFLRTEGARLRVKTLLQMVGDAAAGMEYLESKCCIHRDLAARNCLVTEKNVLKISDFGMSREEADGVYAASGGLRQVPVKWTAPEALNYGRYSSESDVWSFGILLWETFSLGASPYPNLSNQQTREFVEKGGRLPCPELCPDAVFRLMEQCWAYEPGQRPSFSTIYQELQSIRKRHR
Chain of UniProt P37023 (whole entry, looked up): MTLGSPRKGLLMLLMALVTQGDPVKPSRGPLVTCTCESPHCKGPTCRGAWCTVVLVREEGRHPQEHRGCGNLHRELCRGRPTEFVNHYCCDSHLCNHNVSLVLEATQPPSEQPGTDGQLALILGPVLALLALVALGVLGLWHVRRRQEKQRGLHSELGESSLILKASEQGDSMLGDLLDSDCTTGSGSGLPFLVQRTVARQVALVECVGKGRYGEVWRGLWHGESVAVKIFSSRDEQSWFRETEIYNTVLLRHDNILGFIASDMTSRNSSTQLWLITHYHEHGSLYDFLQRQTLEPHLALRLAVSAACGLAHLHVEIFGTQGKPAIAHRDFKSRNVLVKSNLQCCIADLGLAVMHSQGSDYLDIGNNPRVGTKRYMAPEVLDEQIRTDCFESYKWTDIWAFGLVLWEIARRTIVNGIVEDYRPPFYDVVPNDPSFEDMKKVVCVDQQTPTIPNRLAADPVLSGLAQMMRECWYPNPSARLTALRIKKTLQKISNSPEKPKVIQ
Chain of UniProt Q00537 (whole entry, looked up): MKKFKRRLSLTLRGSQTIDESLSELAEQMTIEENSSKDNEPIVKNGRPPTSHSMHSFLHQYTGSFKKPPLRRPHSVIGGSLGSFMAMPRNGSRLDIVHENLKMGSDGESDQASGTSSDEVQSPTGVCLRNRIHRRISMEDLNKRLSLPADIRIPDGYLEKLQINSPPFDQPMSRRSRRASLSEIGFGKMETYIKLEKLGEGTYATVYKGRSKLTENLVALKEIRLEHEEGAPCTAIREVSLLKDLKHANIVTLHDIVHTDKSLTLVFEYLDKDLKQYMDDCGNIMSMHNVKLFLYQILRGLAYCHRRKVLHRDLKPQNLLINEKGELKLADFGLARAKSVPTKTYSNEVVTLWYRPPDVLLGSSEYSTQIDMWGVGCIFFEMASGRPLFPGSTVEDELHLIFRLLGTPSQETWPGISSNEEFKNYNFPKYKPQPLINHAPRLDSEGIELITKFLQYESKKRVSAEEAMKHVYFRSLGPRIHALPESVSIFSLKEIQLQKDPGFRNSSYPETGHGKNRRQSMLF
Chain of UniProt P80192 (whole entry, looked up): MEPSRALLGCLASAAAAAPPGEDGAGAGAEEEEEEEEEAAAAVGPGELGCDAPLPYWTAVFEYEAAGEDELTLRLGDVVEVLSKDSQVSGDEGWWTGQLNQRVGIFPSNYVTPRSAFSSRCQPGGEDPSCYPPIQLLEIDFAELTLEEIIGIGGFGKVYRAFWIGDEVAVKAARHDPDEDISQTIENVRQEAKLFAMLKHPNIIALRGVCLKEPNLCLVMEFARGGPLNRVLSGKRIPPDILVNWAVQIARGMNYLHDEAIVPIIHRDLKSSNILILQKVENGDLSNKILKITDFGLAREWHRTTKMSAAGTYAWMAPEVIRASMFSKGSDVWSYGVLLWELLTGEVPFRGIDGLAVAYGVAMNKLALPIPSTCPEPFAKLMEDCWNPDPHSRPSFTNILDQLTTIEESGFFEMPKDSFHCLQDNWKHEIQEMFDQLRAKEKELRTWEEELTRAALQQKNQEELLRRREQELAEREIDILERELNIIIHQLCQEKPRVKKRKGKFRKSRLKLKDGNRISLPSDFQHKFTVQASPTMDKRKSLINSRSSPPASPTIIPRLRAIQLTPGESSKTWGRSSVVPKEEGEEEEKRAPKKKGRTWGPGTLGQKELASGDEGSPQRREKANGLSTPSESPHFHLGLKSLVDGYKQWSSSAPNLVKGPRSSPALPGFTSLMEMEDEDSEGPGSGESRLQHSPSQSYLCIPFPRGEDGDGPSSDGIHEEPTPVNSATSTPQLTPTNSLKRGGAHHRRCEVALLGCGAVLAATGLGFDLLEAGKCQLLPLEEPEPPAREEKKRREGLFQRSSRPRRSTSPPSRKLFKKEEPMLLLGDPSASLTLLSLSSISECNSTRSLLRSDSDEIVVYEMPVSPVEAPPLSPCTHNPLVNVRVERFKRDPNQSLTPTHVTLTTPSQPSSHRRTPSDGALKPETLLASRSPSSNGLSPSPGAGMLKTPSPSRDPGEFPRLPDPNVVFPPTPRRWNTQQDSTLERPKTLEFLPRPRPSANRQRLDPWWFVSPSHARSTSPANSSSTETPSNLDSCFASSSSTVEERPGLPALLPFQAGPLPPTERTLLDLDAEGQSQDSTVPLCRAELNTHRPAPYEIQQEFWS
Chain of UniProt O14733 (whole entry, looked up): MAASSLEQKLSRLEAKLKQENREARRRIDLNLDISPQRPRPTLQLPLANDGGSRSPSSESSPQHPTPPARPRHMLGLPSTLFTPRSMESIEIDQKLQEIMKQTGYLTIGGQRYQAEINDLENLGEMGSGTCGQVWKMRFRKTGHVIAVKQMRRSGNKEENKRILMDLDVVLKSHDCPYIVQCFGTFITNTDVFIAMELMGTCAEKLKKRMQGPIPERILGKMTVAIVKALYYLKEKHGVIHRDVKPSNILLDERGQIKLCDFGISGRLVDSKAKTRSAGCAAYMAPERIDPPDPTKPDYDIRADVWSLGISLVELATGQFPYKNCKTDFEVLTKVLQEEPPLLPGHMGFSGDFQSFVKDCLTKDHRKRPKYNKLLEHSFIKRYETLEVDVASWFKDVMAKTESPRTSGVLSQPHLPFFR
Chain of UniProt P49841 (whole entry, looked up): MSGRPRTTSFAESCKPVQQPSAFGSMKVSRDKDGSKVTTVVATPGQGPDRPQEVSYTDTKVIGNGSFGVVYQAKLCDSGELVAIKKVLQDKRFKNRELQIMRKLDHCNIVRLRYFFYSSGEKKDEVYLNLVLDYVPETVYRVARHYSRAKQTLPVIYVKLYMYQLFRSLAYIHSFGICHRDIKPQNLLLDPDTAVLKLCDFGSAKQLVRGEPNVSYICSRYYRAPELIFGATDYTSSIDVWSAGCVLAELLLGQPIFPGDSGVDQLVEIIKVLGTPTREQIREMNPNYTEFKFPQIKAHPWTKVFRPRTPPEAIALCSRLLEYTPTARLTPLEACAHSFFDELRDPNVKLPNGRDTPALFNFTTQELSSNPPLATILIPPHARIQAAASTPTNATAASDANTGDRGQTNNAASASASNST

Set 1 — read-out: enzyme activity; mode: inhibitor; tested at: 0.5 µM; baseline: control
Target: Serine/threonine-protein kinase PLK1 (PLK1, Homo sapiens, UniProt P53350)
Chain of UniProt P53350 (whole entry, looked up): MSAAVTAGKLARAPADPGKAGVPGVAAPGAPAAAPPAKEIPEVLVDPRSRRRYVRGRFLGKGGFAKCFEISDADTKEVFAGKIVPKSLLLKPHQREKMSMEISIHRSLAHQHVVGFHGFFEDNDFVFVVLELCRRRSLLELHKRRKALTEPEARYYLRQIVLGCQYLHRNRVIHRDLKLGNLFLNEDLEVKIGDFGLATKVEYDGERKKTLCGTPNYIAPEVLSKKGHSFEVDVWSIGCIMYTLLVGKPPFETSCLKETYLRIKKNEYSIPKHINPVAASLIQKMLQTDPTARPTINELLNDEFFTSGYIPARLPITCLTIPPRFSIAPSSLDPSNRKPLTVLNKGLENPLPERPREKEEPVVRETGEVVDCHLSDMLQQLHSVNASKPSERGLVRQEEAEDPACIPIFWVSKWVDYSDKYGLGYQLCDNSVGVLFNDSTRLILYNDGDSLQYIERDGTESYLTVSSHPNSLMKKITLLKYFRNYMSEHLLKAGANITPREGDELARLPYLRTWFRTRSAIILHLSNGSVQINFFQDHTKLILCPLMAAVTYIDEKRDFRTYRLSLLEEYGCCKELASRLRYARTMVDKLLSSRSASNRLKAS
For `Cc1nc2cc3nc(-c4cccs4)cnc3cc2n1C`, the remaining activity was 109%.
With `O=c1cc(-c2cccc3c2Sc2ccccc2S3)oc(N2CCOCC2)c1` the remaining activity was 102%.
For `Ic1cccc(CSc2nnc(-c3ccncc3)o2)c1`, the remaining activity was 98.6%.
`CCN(CC)CCNC(=O)c1c(C)[nH]c(/C=C2\C(=O)Nc3ccc(Cl)cc32)c1C` has a remaining activity of 105%.
The remaining activity of `N#Cc1c(NC(=O)c2cccc3ccccc23)sc2c1CCCC2` is reported as 96.4%.
For `O=C1c2ccccc2-c2n[nH]c3cccc1c23`, the remaining activity was 95.1%.
For `Cc1cc2ncc(-c3ccccc3)nc2cc1C`, the remaining activity was 101%.
`c1ccc(-c2cnc(Nc3ccc(OCCN4CCCC4)cc3)s2)cc1` gave a remaining activity of 101%.
`Cn1nc2c3c(cccc31)C(=O)c1ccccc1-2` gave a remaining activity of 97%.
With `CN(C)C[C@H]1CCn2c(c(C3=C(c4cn(C)c5ccccc45)C(=O)NC3=O)c3ccccc32)C1` the remaining activity was 102%.
The remaining activity of `CCOc1nc(NC(=O)Cc2cc(OC)ccc2OC)cc(N)c1C#N` is reported as 95.3%.
`Cc1cn(-c2cc(NC(=O)c3ccc(C)c(Nc4nccc(-c5cccnc5)n4)c3)cc(C(F)(F)F)c2)cn1` gave a remaining activity of 97%.
`COc1cc2ncnc(Nc3cccc(Cl)c3)c2cc1OC` gave a remaining activity of 105%.
The remaining activity of `O=C(Nc1cccc(Nc2nccc(Nc3cccc(C(F)(F)F)c3)n2)c1)C1CC1` is reported as 91.7%.
`c1ccc(-c2[nH]ncc2-c2ccnc3ccccc23)nc1` has a remaining activity of 102%.
`Nc1cccc(-c2cc3c(Oc4cccc(O)c4)ncnc3[nH]2)c1` gave a remaining activity of 104%.
`COc1cc2c(cc1OC)-c1[nH]nc(Nc3cccc(F)c3)c1C2` has a remaining activity of 102%.
`O=C(NC(NC(=S)Nc1ccc(F)c([N+](=O)[O-])c1)C(Cl)(Cl)Cl)C(c1ccccc1)c1ccccc1` (centres unmarked) gave a remaining activity of 111%.
For `CN([C@@H](Cc1ccc(OS(=O)(=O)c2cccc3cnccc23)cc1)C(=O)N1CCN(c2ccccc2)CC1)S(=O)(=O)c1cccc2cnccc12`, the remaining activity was 96.7%.
`N#C/C(=C\c1ccc(O)c(O)c1)C(=O)NCc1ccccc1` gave a remaining activity of 97.3%.
`CCN(CC)C(=O)c1ccc(Nc2nc(OCC3CCCCC3)c3[nH]cnc3n2)cc1` gave a remaining activity of 91.4%.
`C[C@@H]1CCN(C(=O)CC#N)C[C@@H]1N(C)c1ncnc2[nH]ccc12` has a remaining activity of 101%.
For `O=C1C(Cl)=C(N2C(=O)CCC2=O)C(=O)c2ccccc21`, the remaining activity was 97.6%.
`COc1cc2ncnc(Nc3ccc(O)c(Br)c3)c2cc1OC` gave a remaining activity of 98.8%.

Set 2 — mode: inhibitor
Structure (SMILES): Cc1nc(Nc2ncc(C(=O)Nc3c(C)cccc3Cl)s2)cc(N2CCN(CCO)CC2)n1
FGFR3 (Homo sapiens, UniProt P22607); 10 µM — inhibition: less than 50%.
STK11 (Homo sapiens, UniProt Q15831); 10 µM — inhibition: less than 50%.
For MYLK (Homo sapiens, UniProt Q15746); 10 µM: inhibition read less than 50%.
MAP3K9 (Homo sapiens, UniProt P80192); 1 µM — inhibition: less than 50%.
It gave less than 50% for inhibition (CAMK1G (Homo sapiens, UniProt Q96NX5); 10 µM).
The inhibition was less than 50% (STK38L (Homo sapiens, UniProt Q9Y2H1); 10 µM).
The inhibition was less than 50% (DAPK2 (Homo sapiens, UniProt Q9UIK4); 10 µM).
ROS1 (Homo sapiens, UniProt P08922); 10 µM — inhibition: less than 50%.
The inhibition was less than 50% (MAST1 (Homo sapiens, UniProt Q9Y2H9); 1 µM).
For PAK1 (Homo sapiens, UniProt Q13153); 1 µM: inhibition read less than 50%.
The inhibition was less than 50% (PLK1 (Homo sapiens, UniProt P53350); 1 µM).
The inhibition was 73% (MYLK2 (Homo sapiens, UniProt Q9H1R3); 10 µM).
For BLK (Homo sapiens, UniProt P51451); 10 µM: inhibition read 95%.

Set 3 — tested at: 1 µM
SMILES: COc1ccc2[nH]c3c4[nH]c5ccc(OC)cc5c4c4c(c3c2c1)C(=O)NC4=O
For EPHB6 (Homo sapiens, UniProt O15197); competitive binding panel; baseline: vehicle: remaining binding read 7.3%.
CAMKK2 (Homo sapiens, UniProt Q96RR4); competitive binding panel; baseline: vehicle — remaining binding: 74%.
The remaining binding was 88% (STK10 (Homo sapiens, UniProt O94804); competitive binding; LOK).
The remaining binding was 86% (FES (Homo sapiens, UniProt P07332); competitive binding panel; baseline: vehicle).
RPS6KA4 (Homo sapiens, UniProt O75676); competitive binding scan; C-terminal kinase domain 2 — remaining binding: 25%.
The remaining binding was 88% (MAP2K7 (Homo sapiens, UniProt O14733); competitive binding panel, measured: MKK7; baseline: vehicle).
For PIKFYVE (Homo sapiens, UniProt Q9Y2I7); competitive binding panel; baseline: vehicle: remaining binding read 0%.
It gave 39% for remaining binding (JAK1 (Homo sapiens, UniProt P23458); competitive binding panel; baseline: vehicle).
TESK1 (Homo sapiens, UniProt Q15569); competitive binding panel; baseline: vehicle — remaining binding: 90%.

Set 4 — technique: competition with immobilised ligand
Compound: O=C(NCCCC1CCCCC1)c1ccc(CNC(=O)c2cnn(-c3ccccc3)c2C(F)(F)F)cc1
For PIK3C3 (Homo sapiens, UniProt Q8NEB9); cell-free assay; 0.1 µM: remaining binding read 100%.
The remaining binding was 100% (ROCK1 (Homo sapiens, UniProt Q13464); cell-free assay; 0.1 µM).
The remaining binding was 89% (MAP3K7 (Homo sapiens, UniProt O43318); cell-free assay; 0.1 µM).
It gave 70% for remaining binding (NIM1K (Homo sapiens, UniProt Q8IY84); cell-free assay; 0.1 µM).
For MAP2K5 (Homo sapiens, UniProt Q13163); cell-free assay; 0.1 µM: remaining binding read 73%.
STK38L (Homo sapiens, UniProt Q9Y2H1); binding; 1 µM — remaining binding: 20%.
It gave 100% for remaining binding (PIK3C2G (Homo sapiens, UniProt O75747); cell-free assay; 0.1 µM).
The remaining binding was 100% (FES (Homo sapiens, UniProt P07332); cell-free assay; 0.1 µM).
For ACVRL1 (Homo sapiens, UniProt P37023); cell-free assay; 0.1 µM: remaining binding read 100%.
HIPK2 (Homo sapiens, UniProt Q9H2X6); cell-free assay; 0.1 µM — remaining binding: 100%.
It gave 100% for remaining binding (FGFR4 (Homo sapiens, UniProt P22455); cell-free assay; 0.1 µM).
TAOK3 (Homo sapiens, UniProt Q9H2K8); cell-free assay; 0.1 µM — remaining binding: 99%.
EPHA6 (Homo sapiens, UniProt Q9UF33); cell-free assay; 0.1 µM — remaining binding: 88%.
Ribosomal protein S6 kinase alpha-6, C-terminal kinase domain (RPS6KA6, Homo sapiens, UniProt Q9UK32); cell-free assay; 0.1 µM — remaining binding: 92%.
It gave 100% for remaining binding (GSK3B (Homo sapiens, UniProt P49841); cell-free assay; 0.1 µM).
The remaining binding was 92% (DAPK3 (Homo sapiens, UniProt O43293); cell-free assay; 0.1 µM).
It gave 88% for remaining binding (CDK5 (Homo sapiens, UniProt Q00535); cell-free assay; 0.1 µM).
The remaining binding was 97% (LATS2 (Homo sapiens, UniProt Q9NRM7); cell-free assay; 0.1 µM).
FLT3 (Homo sapiens, UniProt P36888, ITD); cell-free assay; 0.1 µM — remaining binding: 100%.
DCLK2 (Homo sapiens, UniProt Q8N568); cell-free assay; 0.1 µM — remaining binding: 100%.
It gave 100% for remaining binding (STK3 (Homo sapiens, UniProt Q13188); cell-free assay; 0.1 µM).
The remaining binding was 100% (CDK17 (Homo sapiens, UniProt Q00537); cell-free assay; 0.1 µM).
TEC (Homo sapiens, UniProt P42680); cell-free assay; 0.1 µM — remaining binding: 94%.
For TGFBR2 (Homo sapiens, UniProt P37173); cell-free assay; 0.1 µM: remaining binding read 100%.
It gave 100% for remaining binding (SRPK2 (Homo sapiens, UniProt P78362); cell-free assay; 0.1 µM).

Some of these lines once more (set 1):
For `Ic1cccc(CSc2nnc(-c3ccncc3)o2)c1`, the remaining activity was 98.6%.
`C[C@@H]1CCN(C(=O)CC#N)C[C@@H]1N(C)c1ncnc2[nH]ccc12` has a remaining activity of 101%.
`COc1cc2ncnc(Nc3ccc(O)c(Br)c3)c2cc1OC` gave a remaining activity of 98.8%.
For `Cc1cc2ncc(-c3ccccc3)nc2cc1C`, the remaining activity was 101%.
For `O=C1c2ccccc2-c2n[nH]c3cccc1c23`, the remaining activity was 95.1%.
The remaining activity of `O=C(Nc1cccc(Nc2nccc(Nc3cccc(C(F)(F)F)c3)n2)c1)C1CC1` is reported as 91.7%.
`N#C/C(=C\c1ccc(O)c(O)c1)C(=O)NCc1ccccc1` gave a remaining activity of 97.3%.
For `CN([C@@H](Cc1ccc(OS(=O)(=O)c2cccc3cnccc23)cc1)C(=O)N1CCN(c2ccccc2)CC1)S(=O)(=O)c1cccc2cnccc12`, the remaining activity was 96.7%.
`COc1cc2c(cc1OC)-c1[nH]nc(Nc3cccc(F)c3)c1C2` has a remaining activity of 102%.
